Measurements from different studies.
Compare with care: the assays were run in different laboratories. Numbers after ± are the reported error.
GAP50: Glideosome-associated protein 50 (GAP50, Plasmodium falciparum, UniProt Q8I2X3)
UniProt Q8I2X3, sequence (whole entry, looked up): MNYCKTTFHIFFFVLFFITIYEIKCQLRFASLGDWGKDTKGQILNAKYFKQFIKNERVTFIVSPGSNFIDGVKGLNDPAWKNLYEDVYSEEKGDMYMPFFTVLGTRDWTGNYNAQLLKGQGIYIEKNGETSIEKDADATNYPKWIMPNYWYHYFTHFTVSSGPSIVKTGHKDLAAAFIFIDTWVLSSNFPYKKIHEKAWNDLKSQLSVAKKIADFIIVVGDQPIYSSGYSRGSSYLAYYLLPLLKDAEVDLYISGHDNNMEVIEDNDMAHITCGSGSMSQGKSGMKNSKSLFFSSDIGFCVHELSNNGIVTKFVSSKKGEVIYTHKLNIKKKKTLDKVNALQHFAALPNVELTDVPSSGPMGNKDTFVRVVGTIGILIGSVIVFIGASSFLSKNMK
CDK9: Cyclin-dependent kinase 9 (CDK9, Homo sapiens, UniProt P50750)
UniProt P50750, sequence (whole entry, looked up): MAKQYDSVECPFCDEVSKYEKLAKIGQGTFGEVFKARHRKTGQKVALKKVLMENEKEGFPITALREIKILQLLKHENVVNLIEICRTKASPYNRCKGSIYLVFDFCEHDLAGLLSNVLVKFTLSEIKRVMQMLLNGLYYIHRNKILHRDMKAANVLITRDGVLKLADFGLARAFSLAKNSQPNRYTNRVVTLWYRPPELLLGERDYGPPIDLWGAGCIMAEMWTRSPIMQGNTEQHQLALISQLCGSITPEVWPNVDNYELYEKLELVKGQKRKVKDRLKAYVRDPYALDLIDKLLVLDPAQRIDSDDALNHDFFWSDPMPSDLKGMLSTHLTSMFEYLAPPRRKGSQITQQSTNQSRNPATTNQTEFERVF
CAMKK2: Calcium/calmodulin-dependent protein kinase kinase 2 (CAMKK2, Homo sapiens, UniProt Q96RR4)
UniProt Q96RR4, sequence (whole entry, looked up): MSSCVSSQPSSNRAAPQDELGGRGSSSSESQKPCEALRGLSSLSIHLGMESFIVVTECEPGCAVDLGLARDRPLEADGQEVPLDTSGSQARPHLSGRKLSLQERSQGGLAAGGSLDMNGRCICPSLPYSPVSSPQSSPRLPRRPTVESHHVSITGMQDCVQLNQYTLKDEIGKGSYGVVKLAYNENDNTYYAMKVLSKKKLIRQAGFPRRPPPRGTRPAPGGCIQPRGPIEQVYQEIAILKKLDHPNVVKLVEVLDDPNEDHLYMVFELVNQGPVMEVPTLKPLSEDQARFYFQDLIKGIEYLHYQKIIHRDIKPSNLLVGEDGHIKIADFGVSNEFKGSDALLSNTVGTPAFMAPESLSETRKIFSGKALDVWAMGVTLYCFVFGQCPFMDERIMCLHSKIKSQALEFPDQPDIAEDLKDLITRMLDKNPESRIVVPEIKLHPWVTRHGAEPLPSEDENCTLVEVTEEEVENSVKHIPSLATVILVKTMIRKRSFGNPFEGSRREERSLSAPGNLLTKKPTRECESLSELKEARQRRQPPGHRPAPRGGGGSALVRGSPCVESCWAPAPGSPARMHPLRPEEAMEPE
USP51 ZnF-UBD domain: Ubiquitin carboxyl-terminal hydrolase 51, ZnF-UBD domain (USP51, Homo sapiens, UniProt Q70EK9)
UniProt Q70EK9, sequence (whole entry, looked up): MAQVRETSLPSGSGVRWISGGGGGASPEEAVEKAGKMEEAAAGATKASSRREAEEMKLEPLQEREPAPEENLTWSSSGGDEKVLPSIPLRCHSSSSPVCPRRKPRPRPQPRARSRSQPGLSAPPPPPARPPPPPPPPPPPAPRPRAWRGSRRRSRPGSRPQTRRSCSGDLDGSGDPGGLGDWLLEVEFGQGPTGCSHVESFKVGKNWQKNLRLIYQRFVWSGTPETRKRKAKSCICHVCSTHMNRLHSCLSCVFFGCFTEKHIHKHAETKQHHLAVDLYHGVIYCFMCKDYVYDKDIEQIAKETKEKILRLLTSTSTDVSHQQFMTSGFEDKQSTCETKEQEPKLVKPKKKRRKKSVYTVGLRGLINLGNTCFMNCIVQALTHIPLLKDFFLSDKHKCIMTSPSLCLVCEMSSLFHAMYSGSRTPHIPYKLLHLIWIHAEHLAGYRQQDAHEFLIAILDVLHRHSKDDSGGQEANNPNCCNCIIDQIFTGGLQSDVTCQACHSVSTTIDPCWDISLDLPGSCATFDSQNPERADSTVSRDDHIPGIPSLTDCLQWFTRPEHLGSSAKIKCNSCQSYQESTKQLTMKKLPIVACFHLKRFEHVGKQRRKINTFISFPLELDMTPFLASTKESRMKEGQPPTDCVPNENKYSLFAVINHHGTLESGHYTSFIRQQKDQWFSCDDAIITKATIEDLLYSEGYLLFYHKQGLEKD
Kir3.1/Kir3.2: Kir3.1/Kir3.2 (Homo sapiens, UniProt P48051+P48549)
UniProt P48051, sequence (whole entry, looked up): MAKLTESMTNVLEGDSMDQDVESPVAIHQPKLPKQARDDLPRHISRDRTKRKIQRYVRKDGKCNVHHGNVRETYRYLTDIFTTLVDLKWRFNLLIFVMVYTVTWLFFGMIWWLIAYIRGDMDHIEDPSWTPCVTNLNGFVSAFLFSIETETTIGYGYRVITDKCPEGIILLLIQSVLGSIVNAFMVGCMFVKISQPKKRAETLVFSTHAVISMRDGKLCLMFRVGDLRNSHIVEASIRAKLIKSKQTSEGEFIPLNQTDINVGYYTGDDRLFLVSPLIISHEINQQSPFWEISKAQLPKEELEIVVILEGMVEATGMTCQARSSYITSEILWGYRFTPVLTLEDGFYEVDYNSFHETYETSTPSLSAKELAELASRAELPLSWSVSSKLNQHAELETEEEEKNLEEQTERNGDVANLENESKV
UniProt P48549, sequence (whole entry, looked up): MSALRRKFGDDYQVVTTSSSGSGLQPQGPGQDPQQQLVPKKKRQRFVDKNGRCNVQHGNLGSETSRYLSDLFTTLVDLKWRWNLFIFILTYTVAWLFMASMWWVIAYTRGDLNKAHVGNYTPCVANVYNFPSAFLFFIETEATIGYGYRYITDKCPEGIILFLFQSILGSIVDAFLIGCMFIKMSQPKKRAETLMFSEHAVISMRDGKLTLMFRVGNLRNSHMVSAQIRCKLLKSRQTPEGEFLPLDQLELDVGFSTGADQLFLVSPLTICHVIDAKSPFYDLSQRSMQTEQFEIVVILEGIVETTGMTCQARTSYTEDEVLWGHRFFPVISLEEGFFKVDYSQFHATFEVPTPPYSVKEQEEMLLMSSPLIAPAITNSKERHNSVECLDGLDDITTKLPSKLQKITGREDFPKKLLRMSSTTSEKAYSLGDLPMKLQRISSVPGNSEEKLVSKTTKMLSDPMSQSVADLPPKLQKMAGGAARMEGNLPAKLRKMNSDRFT
UniProt P10636, sequence (whole entry, looked up): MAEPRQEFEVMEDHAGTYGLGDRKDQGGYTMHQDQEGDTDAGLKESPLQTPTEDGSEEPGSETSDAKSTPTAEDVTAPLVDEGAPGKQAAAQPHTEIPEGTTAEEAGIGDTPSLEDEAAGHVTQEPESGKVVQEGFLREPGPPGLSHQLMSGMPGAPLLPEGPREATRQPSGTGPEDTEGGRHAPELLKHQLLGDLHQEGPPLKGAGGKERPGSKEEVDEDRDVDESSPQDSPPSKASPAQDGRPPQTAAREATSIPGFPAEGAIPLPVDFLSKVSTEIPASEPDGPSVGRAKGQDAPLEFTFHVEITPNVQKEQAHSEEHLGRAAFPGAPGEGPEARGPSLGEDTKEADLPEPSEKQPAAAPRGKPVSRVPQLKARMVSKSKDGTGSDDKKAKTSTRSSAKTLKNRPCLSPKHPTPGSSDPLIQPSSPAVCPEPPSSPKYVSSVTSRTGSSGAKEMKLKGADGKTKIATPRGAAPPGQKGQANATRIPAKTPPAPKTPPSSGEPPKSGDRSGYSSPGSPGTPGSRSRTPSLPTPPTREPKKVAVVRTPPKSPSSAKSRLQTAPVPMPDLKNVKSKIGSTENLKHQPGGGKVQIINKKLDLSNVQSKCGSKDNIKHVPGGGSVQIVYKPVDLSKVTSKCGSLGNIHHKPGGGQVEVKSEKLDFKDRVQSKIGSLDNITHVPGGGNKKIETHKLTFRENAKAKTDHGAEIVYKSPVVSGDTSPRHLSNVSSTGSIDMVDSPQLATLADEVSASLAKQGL
UniProt P00388, sequence (whole entry, unmodified, looked up): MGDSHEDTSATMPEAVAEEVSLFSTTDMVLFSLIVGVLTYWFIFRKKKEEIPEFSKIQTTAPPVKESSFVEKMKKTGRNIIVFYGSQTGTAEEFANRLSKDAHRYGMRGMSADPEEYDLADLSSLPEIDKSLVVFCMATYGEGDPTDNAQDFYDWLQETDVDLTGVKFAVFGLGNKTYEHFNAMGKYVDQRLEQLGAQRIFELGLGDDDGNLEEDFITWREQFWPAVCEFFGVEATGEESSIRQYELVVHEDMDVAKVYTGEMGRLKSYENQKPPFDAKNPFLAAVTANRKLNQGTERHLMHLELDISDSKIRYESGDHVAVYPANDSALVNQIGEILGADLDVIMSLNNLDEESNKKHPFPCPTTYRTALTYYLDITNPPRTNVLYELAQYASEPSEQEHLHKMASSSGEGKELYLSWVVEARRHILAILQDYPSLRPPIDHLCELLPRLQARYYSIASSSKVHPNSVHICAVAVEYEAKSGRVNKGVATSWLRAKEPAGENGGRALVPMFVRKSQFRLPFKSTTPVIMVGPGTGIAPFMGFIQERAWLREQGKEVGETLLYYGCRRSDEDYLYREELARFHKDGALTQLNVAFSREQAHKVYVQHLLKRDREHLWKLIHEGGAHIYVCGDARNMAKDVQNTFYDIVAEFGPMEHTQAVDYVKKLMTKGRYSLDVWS
UniProt P14618, sequence (whole entry, looked up): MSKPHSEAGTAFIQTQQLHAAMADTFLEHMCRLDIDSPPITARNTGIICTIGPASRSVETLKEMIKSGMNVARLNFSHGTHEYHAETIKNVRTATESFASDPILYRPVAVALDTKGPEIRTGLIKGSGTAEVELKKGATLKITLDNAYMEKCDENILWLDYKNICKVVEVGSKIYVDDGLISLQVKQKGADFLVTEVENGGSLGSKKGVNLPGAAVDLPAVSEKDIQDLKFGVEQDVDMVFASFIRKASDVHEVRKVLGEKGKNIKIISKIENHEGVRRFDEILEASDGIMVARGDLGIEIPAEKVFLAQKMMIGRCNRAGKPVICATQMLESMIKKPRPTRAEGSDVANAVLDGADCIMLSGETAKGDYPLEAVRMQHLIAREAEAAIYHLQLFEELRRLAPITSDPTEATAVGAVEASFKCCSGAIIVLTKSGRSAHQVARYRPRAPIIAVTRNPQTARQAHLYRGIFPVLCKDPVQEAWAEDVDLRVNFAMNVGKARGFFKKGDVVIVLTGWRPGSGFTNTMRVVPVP

Cc1c[nH]c(CCNC(=O)c2cc(-c3ccc(Cl)cc3)cs2)n1  Kd (GAP50; binding, surface plasmon resonance; 1:1 binding model): 58.4 µM
C[C@H](N)C(=O)N[C@H](CCC(=O)O)C(N)=O  Kd (Nucleotide-binding oligomerization domain-containing protein 2, LRR domain (NOD2, Homo sapiens, UniProt Q9HC29, R877A); surface plasmon resonance; LRR mutant R877A): 1.22 ± 0.155 µM
CC(C)(C)c1cnc(CSc2cnc(NC(=O)C3CCN(CC(=O)NCCOCCOCCOCCNc4cccc5c4C(=O)N(C4CCC(=O)NC4=O)C5=O)CC3)s2)o1 (stereo not drawn)  DC50 (CDK9; degrader, Western blot; TC-71): 0.0474 ± 0.0216 µM
COc1ccc2nc(/C=C/c3ccc(N(C)C)cc3)sc2c1  AC50 (Microtubule-associated protein tau, fibrils (MAPT, Homo sapiens, UniProt P10636); binding; synthetic 2N4R tau filaments 1 µM; together with: thioflavin S): > 10 µM
O=C(NC1CC1)c1ccc(N2CCOc3ccc(Cl)cc32)s1  Kd (GAP50; binding, surface plasmon resonance; 1:1 binding model): 96.8 µM
CC[C@@H]1[C@H](F)C(=O)N[C@@H]1COc1nccc2cc(C(N)=O)c(OC)cc12  IC50 (CAMKK2; ATP-site probe binding, inhibitor, ActivX ATP probe profiling; THP-1 cell lysate; probe site Lys1): 3.8 µM
CCCCCCCCCCCCCCCC  Ki (uncharacterized protein (Bradysia odoriphaga, UniProt A0A2S0X9G4); binding, competitive fluorescence displacement): > 50 µM
CCCCCCCCCCCCCCCCCCCCCCC  IC50 (uncharacterized protein (Drosophila suzukii, UniProt A0AB39ZGK5); binding, bis-ANS competition fluorescence; pH 7.4, together with: bis-ANS): > 50 µM
CC(C)(C)c1cnc(CSc2cnc(NC(=O)C3CCN(C(=O)CCCCCCCCCCN4Cc5cc6c(cc5C4)C(=O)N(C4CCC(=O)NC4=O)C6=O)CC3)s2)o1 (stereo not drawn)  DC50 (CDK9; degrader, Western blot; TC-71): 0.0147 ± 0.0033 µM
COc1ccc2nc(/N=N/c3ccc(N(C)C)cc3)sc2c1  AC50 (Microtubule-associated protein tau, paired helical filaments (MAPT, Homo sapiens, UniProt P10636); thioflavin S displacement, fluorescence; patient-derived PHF tau; together with: thioflavin S): 0.048 ± 0.004 µM
O=C(O)Cc1nc2ccccc2[nH]1  Kd (USP51 ZnF-UBD domain): > 1000 µM
Cc1cc(C)cc(COc2ccc3c(C)c(CCC(=O)O)c(=O)oc3c2C)c1  Kd (GAP50; binding, surface plasmon resonance; 1:1 binding model): 26.6 µM
C=C(C)[C@H]1CC=C(C)CC1  Ki (uncharacterized protein (Bradysia odoriphaga, UniProt A0A2S0X9G4); binding, competitive fluorescence displacement): > 50 µM
O=C(O)CCn1ccccc1=O  Kd (USP51 ZnF-UBD domain): > 1000 µM
CCOc1ccc(-c2nc(CNCCc3ccc(F)cc3)cs2)cc1  Kd (GAP50; binding, surface plasmon resonance; 1:1 binding model): 40.3 µM
O=C(O)CSc1nnc(NC(=O)COc2ccccc2)s1  Kd (USP51 ZnF-UBD domain): > 1000 µM
O=C(COc1ccc(Cl)cc1Cl)Nc1cc(C2CCC2)nn1C1CCC(F)(F)CC1  EC50 (Kir3.1/Kir3.2; activator, thallium flux; HEK293): 0.45 µM
CC(C)(C)c1cnc(CSc2cnc(NC(=O)C3CCN(C(=O)CCCCCCN4Cc5cc6c(cc5C4)C(=O)N(C4CCC(=O)NC4=O)C6=O)CC3)s2)o1 (stereo not drawn)  DC50 (CDK9; degrader, Western blot; SK-UT-1 uterine leiomyosarcoma; 6 h): < 0.01 µM
O=C(COc1ccc(Cl)cc1Cl)Nc1cc(C2CCC2)nn1CC(F)(F)F  EC50 (Kir3.1/Kir3.2; activator, thallium flux; HEK293): > 10 µM
CC(=O)C(C)O (stereo not drawn)  IC50 (uncharacterized protein (Drosophila suzukii, UniProt A0AB39ZCT4); binding, bis-ANS competition fluorescence; pH 7.4, together with: bis-ANS): > 50 µM
CNC(=O)[C@@H]1Cc2c([nH]c3cc(Cl)ccc23)C2(CCN(CCc3ccccc3)CC2)N1  Kd (GAP50; binding, surface plasmon resonance; 1:1 binding model): 65.3 µM
O=C(O)CCC(=O)c1ccc(S(=O)(=O)N2CCCC2)cc1  Kd (USP51 ZnF-UBD domain): > 1000 µM
NC(=O)c1ccc[n+]([C@@H]2O[C@H](COP(=O)(O)OP(=O)(O)OC[C@H]3O[C@@H](n4cnc5c(N)ncnc54)[C@H](OP(=O)(O)O)[C@@H]3O)[C@@H](O)[C@H]2O)c1  Ki (NADPH--cytochrome P450 reductase (Rattus norvegicus, UniProt P00388, del2-56); cytochrome c reduction, competitive inhibitor; S678X mutant, together with: NADPH): 14.2 µM
O=C(O)CCC(=O)N1CCc2ccccc21  Kd (USP51 ZnF-UBD domain): > 1000 µM
CCc1cc(NC(=O)COc2cccc(Cl)c2Cl)n(C2CCC(F)(F)CC2)n1  EC50 (Kir3.1/Kir3.2; activator, thallium flux; HEK293): 0.068 µM
CN1CCN(c2ccc(Nc3ncc4cc(C#N)c(=O)n(C5CCCC5)c4n3)cc2)CC1  IC50 (CAMKK2): 1.53 µM
Cn1cncc1[C@@](N)(c1ccc(Cl)cc1)c1ccc2c(c1)c(-c1cccc(Cl)c1)cc(=O)n2C  Kd (GAP50; binding, surface plasmon resonance; 1:1 binding model): 55.2 µM
CC(C)(C)c1cnc(CSc2cnc(NC(=O)C3CCN(C(=O)CCCCCCCCCCCN4Cc5cc6c(cc5C4)C(=O)N(C4CCC(=O)NC4=O)C6=O)CC3)s2)o1 (stereo not drawn)  DC50 (CDK9; degrader, Western blot; TC-71): 0.0076 ± 0.0038 µM
CC(C)Cn1c(=O)n(C)c(=O)c2c(-c3cncn3C)n(Cc3cccc4ccccc34)nc21  Kd (GAP50; binding, surface plasmon resonance; 1:1 binding model): 7.56 µM
N#Cc1ccsc1NC(=O)COc1ccc(Cl)cc1Cl  EC50 (Kir3.1/Kir3.2; activator, thallium flux; HEK293): > 10 µM
CC(C)(C)c1cnc(CSc2cnc(NC(=O)C3CCN(C(=O)CCCCCCCN4Cc5cc6c(cc5C4)C(=O)N(C4CCC(=O)NC4=O)C6=O)CC3)s2)o1 (stereo not drawn)  DC50 (CDK9; degrader, Western blot; RH5 rhabdomyosarcoma; 6 h): < 0.01 µM
CN(CCCCCCNC(=O)CNc1cccc2c1C(=O)N(C1CCC(=O)NC1=O)C2=O)Cc1cn(Cc2ccc(C(=O)NO)cc2)c2ccccc12 (stereo not drawn)  DC50 (HDAC10 (Homo sapiens, UniProt Q969S8); degrader, western blot; MM1.S cells; 24 h): 0.05 ± 0.0027 µM
O=C(O)CCc1ccc2c(c1)OCO2  Kd (USP51 ZnF-UBD domain): > 1000 µM
CCc1cc(NC(=O)COc2cc(Cl)ccc2Cl)n(C2CCC(F)(F)CC2)n1  EC50 (Kir3.1/Kir3.2; activator, thallium flux; HEK293): 0.045 µM
O=C(O)CNc1ncccn1  Kd (USP51 ZnF-UBD domain): > 1000 µM
Cc1cc(NC(=O)CNC2CCNCC2)n(C2CCS(=O)(=O)C2)n1 (stereo not drawn)  EC50 (Kir3.1/Kir3.2; activator, thallium flux; HEK293): > 10 µM
Oc1cccc(C(Nc2nccs2)c2ccc3cccnc3c2O)c1 (stereo not drawn)  Kd (GAP50; binding, surface plasmon resonance): 5.78 µM
CCOC(C)=O  IC50 (uncharacterized protein (Drosophila suzukii, UniProt A0AB39ZGK5); binding, bis-ANS competition fluorescence; pH 7.4, together with: bis-ANS): > 50 µM
O=C(O)CCc1nccs1  Kd (USP51 ZnF-UBD domain): > 1000 µM
O=C(COc1cc(Cl)ccc1Cl)Nc1cc(C2CC2)nn1C1CCC(F)(F)CC1  EC50 (Kir3.1/Kir3.2; activator, thallium flux; HEK293): 0.194 µM
CCCCOC(=O)CCC(C)=O  Ki (uncharacterized protein (Bradysia odoriphaga, UniProt A0A2S0X9G4); binding, competitive fluorescence displacement): > 50 µM
O=C(COP(=O)(O)O)[C@@H](O)[C@H](O)[C@H](O)COP(=O)(O)O  AC50 (Pyruvate kinase PKM (PKM, Homo sapiens, UniProt P14618); enzyme activity, activator; RKO cell lysate; together with: 0.2 mM PEP, 2 mM ADP): 0.0575 ± 0.0227 µM

Some of these lines once more:
CC(C)(C)c1cnc(CSc2cnc(NC(=O)C3CCN(C(=O)CCCCCCCN4Cc5cc6c(cc5C4)C(=O)N(C4CCC(=O)NC4=O)C6=O)CC3)s2)o1 (stereo not drawn)  DC50 (CDK9; degrader, Western blot; RH5 rhabdomyosarcoma; 6 h): < 0.01 µM
CN(CCCCCCNC(=O)CNc1cccc2c1C(=O)N(C1CCC(=O)NC1=O)C2=O)Cc1cn(Cc2ccc(C(=O)NO)cc2)c2ccccc12 (stereo not drawn)  DC50 (HDAC10 (Homo sapiens, UniProt Q969S8); degrader, western blot; MM1.S cells; 24 h): 0.05 ± 0.0027 µM
O=C(O)CCc1ccc2c(c1)OCO2  Kd (USP51 ZnF-UBD domain): > 1000 µM
CCc1cc(NC(=O)COc2cc(Cl)ccc2Cl)n(C2CCC(F)(F)CC2)n1  EC50 (Kir3.1/Kir3.2; activator, thallium flux; HEK293): 0.045 µM
O=C(O)CNc1ncccn1  Kd (USP51 ZnF-UBD domain): > 1000 µM
Cc1cc(NC(=O)CNC2CCNCC2)n(C2CCS(=O)(=O)C2)n1 (stereo not drawn)  EC50 (Kir3.1/Kir3.2; activator, thallium flux; HEK293): > 10 µM
Oc1cccc(C(Nc2nccs2)c2ccc3cccnc3c2O)c1 (stereo not drawn)  Kd (GAP50; binding, surface plasmon resonance): 5.78 µM
